Measurements gathered from unrelated publications.
Every numbered part comes from another study and shows a few of its results, in no order.

Sample 1
Target: Histone acetyltransferase KAT6A, winged helix 1, GST fusion (KAT6A, Homo sapiens, UniProt Q92794, residues 1-85)
Technique: protein binding microarray
Molecule type: double-stranded DNA, one strand shown
Matrix: in vitro
Concentration: not given
Notes: 8-mer, flanks averaged, mean of 2 arrays, mostly near background
Reference: not given
Direction: higher = stronger binding
Measurement: E-score
Target sequence (chain): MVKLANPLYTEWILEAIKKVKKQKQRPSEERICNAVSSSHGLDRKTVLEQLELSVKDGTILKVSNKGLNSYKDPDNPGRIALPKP
ATGATCGA: -0.115
GGAGCCGA: 0.175
ACCATCCT: -0.105
TTAATAAA: -0.0268
ATCACATG: 0.0624
ACCGATTC: 0.0668
GCGCTCCC: 0.33

Sample 2
Target: TAR DNA-binding protein 43, full length, His tag (TARDBP, Homo sapiens, UniProt Q13148, residues 1-414)
Technique: RNA Bind-n-Seq
Molecule type: RNA
Matrix: in vitro
Concentration: 20 nM
Notes: 6-mer, flanks averaged, single round
Together with: 150 mM KCl
Reference: input library
Direction: higher = stronger binding
Measurement: 6-mer enrichment (R)
ACGACC: 0.643
AACUCU: 0.6
CGGACU: 0.903
CCGGAG: 1.48
AACUUU: 0.61
UGAUUU: 0.615

Sample 3
Target: Cyclic AMP-responsive element-binding protein 1 (CREB1, Homo sapiens, UniProt P16220, residues 1-327, full length assumed)
Sequence of UniProt P16220 (whole entry, looked up): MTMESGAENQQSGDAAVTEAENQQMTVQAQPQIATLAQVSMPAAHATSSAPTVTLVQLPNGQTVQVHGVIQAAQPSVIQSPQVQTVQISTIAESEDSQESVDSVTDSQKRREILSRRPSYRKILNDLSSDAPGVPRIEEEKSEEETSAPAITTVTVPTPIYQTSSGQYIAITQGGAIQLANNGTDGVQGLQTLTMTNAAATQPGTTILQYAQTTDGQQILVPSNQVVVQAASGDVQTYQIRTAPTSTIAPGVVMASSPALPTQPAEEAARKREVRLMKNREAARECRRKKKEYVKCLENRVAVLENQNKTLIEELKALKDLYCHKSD
Technique: protein-binding microarray
Molecule type: double-stranded DNA, one strand shown
Matrix: in vitro
Concentration: not given
Notes: k-mer, scored over probes, only values ≥0.25
Direction: higher = stronger binding
Measurement: E-score
ACATCAC: 0.306
CTACGTA: 0.412
GACGTTA: 0.329
ATACGTA: 0.413

Single results of other studies
PhoQ, residues 284 288 289 292 302 303 GASLAW — fold induction (PhoP, residues 12 14 15 18 19 NQAHL (Escherichia coli, UniProt P23836); Sort-seq, measured: YFP reporter; E. coli; PhoQ-PhoP variant library, together with: 10 µM Mg2+; reference: high Mg2+ state, higher = stronger signaling): 0.545
